{"data": "Published values collected from several papers", "note": "Protocols differ between the studies behind these lines. “And” joins repeats or separate records; there may be more than shown. ± gives the spread as reported."}
{"Structure (SMILES)": "O=c1cc(Nc2cccc(O)c2)c2ccccc2o1", "target or system": "COS-7 (untransfected)", "conditions": "500 µM, unit not given", "how to read": "reference: 3 µM ionomycin", "endpoint": "calcium mobilisation signal", "value": "2.7 ± 2.21"}
{"Structure (SMILES)": "O=S(=O)(Nc1ccc(OC(F)(F)F)cc1)N1CCCC(C2c3ccc(F)cc3CCc3cc(F)ccc32)C1 (stereo not drawn)", "target or system": "D341", "assay": "Transwell", "conditions": "1.5 µM, 24 h", "endpoint": "cell migration", "value": "decreased"}
{"Structure (SMILES)": "CC(=O)N1CCC[C@H]1C(=O)N[C@@H](CCC(N)=O)C(=O)N[C@@H](C)C(=O)N[C@@H](CC(=O)O)C(=O)COC(=O)c1c(C)cccc1C", "target or system": "THP-1 cells, LPS-primed", "assay": "pyroptosis, LDH release", "conditions": "25 µM, LPS 1 µg/mL, 4 h, added: nigericin 5 µM, 2 h", "endpoint": "cell lysis", "value": "68.2%"}
{"Structure (SMILES)": "Cc1ncsc1-c1ccc(C(C)NC(=O)C2CC(O)CN2C(=O)C(NC(=O)CCCCCCCCCCN2CCCC(Nc3ncc(Cl)c(Nc4ccccc4S(=O)(=O)C(C)C)n3)C2)C(C)(C)C)cc1 (stereo not drawn)", "target or system": "22Rv1", "assay": "RNA-seq, item: ST20-AS1", "conditions": "concentration not given", "how to read": "reference: DMSO", "endpoint": "log2 fold change", "value": -1.15}
{"Structure (SMILES)": "O=C(N/N=C/c1cc[n+](Cc2ccccc2)c2ccccc12)c1cccc(C(=O)N/N=C/c2cc[n+](Cc3ccccc3)c3ccccc23)c1", "target or system": "22CTA telomeric G4-DNA antiparallel", "assay": "FRET melting", "conditions": "1 µM, K10 buffer, DNA 0.2 µM, added: ds26 10 µM", "endpoint": "ΔTm", "value": "10.5 ± 0.2 °C"}
{"Structure (SMILES)": "C=C1CC[C@H](OCCCNC(=O)CCOCCOCCOCCOCCOCCOCCOCCOCCOCCOCCOCCOCCOCCOCCOCCOCCOCCOCCOCCOCCOCCOCCOCCOCCOCCOCCOCCOCCOCCOCCOCCOCCOCCOCCOCCOCCNC(=O)CCN2C(=O)CC(SC[C@H](NC(=O)[C@H](Cc3ccccc3)NC(=O)[C@H](CC(N)=O)NC(=O)[C@H](Cc3c[nH]cn3)NC(=O)[C@@H](NC(=O)[C@H](CC(=O)O)NC(=O)[C@H](CCC(N)=O)NC(=O)[C@H](CC(C)C)NC(=O)[C@H](CCCCN)NC(=O)[C@H](CCCCN)NC(=O)[C@H](CCCNC(=N)N)NC(=O)[C@H](CC(C)C)NC(=O)[C@H](Cc3c[nH]c4ccccc34)NC(=O)[C@H](CCC(=O)O)NC(=O)[C@@H](NC(=O)[C@H](CCCNC(=N)N)NC(=O)[C@H](CCC(=O)O)NC(=O)[C@H](CCSC)NC(=O)[C@H](CO)NC(=O)[C@H](CC(N)=O)NC(=O)[C@H](CC(C)C)NC(=O)[C@H](Cc3c[nH]cn3)NC(=O)[C@H](CCCCN)NC(=O)CNC(=O)[C@H](CC(C)C)NC(=O)[C@H](CC(N)=O)NC(=O)[C@H](Cc3c[nH]cn3)NC(=O)[C@H](CCSC)NC(=O)[C@H](CC(C)C)NC(=O)[C@H](CCC(N)=O)NC(=O)[C@@H](NC(=O)[C@H](CCC(=O)O)NC(=O)[C@H](CO)NC(=O)[C@@H](NC(=O)[C@@H](N)CO)C(C)C)[C@@H](C)CC)C(C)C)C(C)C)C(=O)O)C2=O)C/C1=C/C=C1\\CCC[C@]2(C)[C@@H]([C@H](C)CCCC(C)(C)O)CC[C@@H]12 (stereo partly drawn)", "test system": "rat, plasma", "conditions": "subcutaneous, 100 µg/kg, single dose", "endpoint": "MRT", "value": "13.7 h"}
{"Structure (SMILES)": "C[C@@H]1CC[C@@H]([C@@](O)(CNCc2ccc(F)cc2)COCc2ccccc2)[C@H](OCc2ccccc2)C1", "target or system": "A2780", "assay": "cell growth or viability, MTT", "conditions": "10 µM, 72 h", "endpoint": "inhibition", "value": "93.4%"}
{"Structure (SMILES)": "Cc1ccncc1.[Cl-].[Cl-].[Ru+2].c1cc(-c2ccc3cccnc3n2)nc(-c2ccc3cccnc3n2)c1.c1ccc2cc3nc4c5cccnc5c5ncccc5c4nc3cc2c1", "target or system": "SK-MEL-28", "assay": "cell viability", "conditions": "light 633 nm, 100 J/cm2", "endpoint": "EC50", "value": "521 ± 12 nM"}
{"Structure (SMILES)": "CCC(=CCc1c(O)cc2c(c1O)C(=O)CC(c1ccc(O)c(OC)c1)O2)CC (stereo not drawn)", "target or system": "HeLa", "assay": "cell growth or viability, MTT", "conditions": "1.563 µM, 48 h", "endpoint": "inhibition", "value": "5.28%"}
{"Structure (SMILES)": "N#C[C@@H]1CCCN1C(=O)CNC(=O)c1ccnc2ccc(OCCCN3CCN(C(=O)CCc4ccc(O)c(CN5CCN6CC(=O)[O][Al-]([18F])([O]C(=O)C5)[O]c5ccc(CCC(=O)N7CCN(CCCOc8ccc9nccc(C(=O)NCC(=O)N%10CCC[C@H]%10C#N)c9c8)CC7)cc5C6)c4)CC3)cc12 (stereo partly drawn)", "target or system": "HT1080 cells expressing human FAP", "conditions": "30 min, 37 °C", "endpoint": "internalized fraction", "value": "66 ± 4.2%"}
{"Structure (SMILES)": "COc1ccc(Br)c2c1OC1=C(C(=O)CCC1)C2c1c[nH]c2ccccc12 (stereo not drawn)", "target or system": "3T3-L1 mature adipocytes", "assay": "lipolysis, Oil Red O staining", "conditions": "IC20", "endpoint": "mean lipid content", "value": "0.596 OD492"}
{"Structure (SMILES)": "Cn1ncc2cc(-c3cncc(Cl)c3N3CCC4(CCNC4=O)CC3)ccc21", "target or system": "LS174T", "assay": "gene expression, microarray, item: DUSP6 mRNA", "conditions": "concentration not given, 24 h", "how to read": "reference: untreated cells", "endpoint": "log2 fold change", "value": 2.1}
{"Structure (SMILES)": "CN1CCCNC(=O)c2cccc(c2)C(=O)NCCCN(C)CCCNc2cccc3c2C(=O)c2cccc(c2C3=O)NCCC1", "target or system": "SAS", "assay": "RNA-Seq, item: HIKESHI mRNA", "conditions": "1 µM, 6 h", "how to read": "reference: untreated cells", "endpoint": "log2 fold change", "value": -0.564}
{"Structure (SMILES)": "CNS(=O)(=O)Nc1nccc(Cc2c(C)c3ccc(Oc4ncccc4F)cc3oc2=O)c1F", "target or system": "JHH7", "assay": "cell viability", "conditions": "7 days", "endpoint": "IC50", "value": "9.41 nM"}
{"Structure (SMILES)": "COC1CCC(Nc2nc(-c3nccn3C)nc3sc(-c4ccn(C)n4)c(-c4ccccc4)c23)C1 (stereo not drawn)", "target or system": "BxPC-3", "assay": "cAMP-Glo", "conditions": "1.0 µM, 1 h, added: isoprenaline 15 min", "endpoint": "cAMP level", "value": "no effect"}
{"Structure (SMILES)": "O=C(N/N=C/c1ccc(C[n+]2ccccc2)cc1)c1cncc(C(=O)N/N=C/c2ccc(C[n+]3ccccc3)cc2)n1", "target or system": "22CTA telomeric G4-DNA antiparallel", "assay": "FRET melting", "conditions": "1 µM, K10 buffer, DNA 0.2 µM", "endpoint": "ΔTm", "value": "12.6 ± 0.3 °C"}
{"Structure (SMILES)": "O=C(NC1CCOCC1)c1ccc([C@H]2[C@@H](F)[C@@H](F)C[C@@H](F)[C@H]2F)cc1", "assay": "liver microsome stability", "test system": "cynomolgus liver microsomes", "conditions": "1 µM", "endpoint": "hepatic clearance", "value": "4.9 mL/min/kg"}
{"Structure (SMILES)": "O=C(Nc1ccc(Sc2ccc3c(/C=C/c4ccccn4)n[nH]c3c2)cc1)c1ccco1", "target or system": "BaF3", "assay": "cell growth or viability, CCK-8", "endpoint": "GI50", "value": "3050 nM"}
{"Structure (SMILES)": "COC(=O)c1ccc(S(=O)(=O)NC23CCCC(C)(CCC4C2CC4(C)C)C3)cc1 (stereo not drawn)", "target or system": "HT-29", "assay": "cell growth or viability, CCK-8", "conditions": "50 µM", "endpoint": "inhibition", "value": "48.3%"}
{"Structure (SMILES)": "CCN(CC)CC(=O)Nc1cccc(-n2cc(-c3ccc4ccc(-c5cn(-c6cccc(NC(=O)CN(CC)CC)c6)nn5)cc4c3)nn2)c1", "target or system": "RCC4", "assay": "PCR angiogenesis array, item: PECAM1", "conditions": "5 x IC50, 6 h, normoxia", "how to read": "reference: untreated", "endpoint": "fold regulation", "value": 1.03}
{"Structure (SMILES)": "CCNc1cc2c(cc1C)C1(c3cc(C)c(NCC)cc3O2)c2ccccc2C(=O)N1N=Cc1c[c-]c(-c2ccccn2)cc1.Cc1c(C)c(-c2ccc(-c3ccccc3)cc2)[c-](C)c1C.[Cl-].[Ir+3]", "target or system": "A549", "assay": "PI flow cytometry", "conditions": "0.25 x IC50, 24 h", "endpoint": "G2/M phase cells", "value": "13.2 ± 0.23%"}
{"Structure (SMILES)": "CC(=O)N[C@@H](Cc1ccc(O)cc1)C(=O)N1CSC[C@H]1C(=O)N[C@@H](C)C(=O)N[C@@H](CC(=O)O)C(=O)COC(=O)c1c(C)cccc1C", "target or system": "THP-1 cells, LPS-primed", "assay": "pyroptosis, LDH release", "conditions": "25 µM, LPS 1 µg/mL, 4 h, added: nigericin 5 µM, 2 h", "endpoint": "cell lysis", "value": "39.3% and 41%"}
{"Structure (SMILES)": "N#CCNC(=O)c1ccc(C2CCCCC2)cc1", "assay": "hepatocyte stability", "test system": "cryopreserved human hepatocytes", "conditions": "1 µM", "endpoint": "hepatic clearance", "value": "18 mL/min/kg"}
{"Structure (SMILES)": "CCC(=CCc1c(O)cc2c(c1O)C(=O)CC(c1ccc(O)cc1OC)O2)CC (stereo not drawn)", "target or system": "HeLa", "assay": "cell growth or viability, MTT", "conditions": "50 µM, 48 h", "endpoint": "inhibition", "value": "97.1%"}
{"note": "Some of these lines once more:"}
{"Structure (SMILES)": "CC(=O)N[C@@H](Cc1ccc(O)cc1)C(=O)N1CSC[C@H]1C(=O)N[C@@H](C)C(=O)N[C@@H](CC(=O)O)C(=O)COC(=O)c1c(C)cccc1C", "target or system": "THP-1 cells, LPS-primed", "assay": "pyroptosis, LDH release", "conditions": "25 µM, LPS 1 µg/mL, 4 h, added: nigericin 5 µM, 2 h", "endpoint": "cell lysis", "value": "39.3% and 41%"}
{"Structure (SMILES)": "CN1CCCNC(=O)c2cccc(c2)C(=O)NCCCN(C)CCCNc2cccc3c2C(=O)c2cccc(c2C3=O)NCCC1", "target or system": "SAS", "assay": "RNA-Seq, item: HIKESHI mRNA", "conditions": "1 µM, 6 h", "how to read": "reference: untreated cells", "endpoint": "log2 fold change", "value": -0.564}
